Published values of several laboratories.
Each line is one published result; not all experiments were run side by side. Numbers after ± are the reported error.

Compound | test | test system | setting | quantity | value
O=C(O)C[C@H](NC(=O)[C@H](CC(=O)O)NC(=O)[C@H](CC(=O)O)NC(=O)[C@H](CC(=O)O)NC(=O)[C@H](CC(=O)O)NC(=O)[C@H](CC(=O)O)NC(=O)[C@H](CC(=O)O)NC(=O)[C@H](CC(=O)O)NC(=O)[C@H](CC(=O)O)NC(=O)[C@H](CC(=O)O)NC(=O)[C@H](CC(=O)O)NC(=O)[C@H](CCCCNC(=O)c1ccc(C(=O)NCCOCCOB2BBBBBB3BBBB3B2)cc1)NC(=O)CN1CCN(CC(=O)O)CCN(CC(=O)O)CCN(CC(=O)O)CC1)C(=O)O [gallium-67 labelled] | gamma counting | mouse, ddY, male, 6 weeks old, femur | intravenous, 37 kBq, 1 h | tissue uptake | 9.63 %ID/g
CC[C@H](C)[C@H](NC(=O)[C@H](Cc1ccccc1)NC(=O)[C@H](CCC(=O)O)NC(=O)[C@H](CCCNC(=N)N)NC(=O)[C@H](C)NC(=O)[C@H](C)NC(=O)[C@H](CCC(N)=O)NC(=O)[C@H](CCC(=O)O)NC(=O)[C@H](CCC(=O)O)NC(=O)[C@H](CC(C)C)NC(=O)[C@H](Cc1ccc(O)cc1)NC(=O)[C@H](CO)NC(=O)[C@H](CO)NC(=O)[C@@H](NC(=O)[C@H](CC(=O)O)NC(=O)[C@H](CO)NC(=O)[C@@H](NC(=O)[C@H](Cc1ccccc1)NC(=O)[C@@H](NC(=O)CNC(=O)[C@H](CCC(=O)O)NC(=O)[C@H](C)NC(=O)CCc1c[nH]cn1)[C@@H](C)O)[C@@H](C)O)C(C)C)C(=O)N[C@@H](C)C(=O)N[C@@H](Cc1c[nH]c2ccccc12)C(=O)N[C@@H](CC(C)C)C(=O)N[C@H](C(=O)N[C@@H](CCCNC(=N)N)C(=O)NCC(=O)N[C@@H](CCCNC(=N)N)C(=O)N[C@@H](CCCCNC(=O)COCCOCCNC(=O)COCCOCCNC(=O)CC[C@H](NC(=O)CCCCCCCCCCCCCCCCC(=O)O)C(=O)O)C(=O)NCC(=O)NCC(=O)N[C@@H](CO)C(=O)N[C@@H](CCCCNc1c(NCCCCCN(O)C(=O)CCC(=O)NCCCCCN(O)C(=O)CCC(=O)NCCCCCN(O)C(C)=O)c(=O)c1=O)C(=O)O)C(C)C [zirconium-89 labelled] | gamma counting | rat, skin at injection site | intravenous, 3 nmol/kg, 24 h | tissue uptake | 0.16 %ID/g
N=C(N)NCCC[C@@H]1NC(=O)[C@H](CCCCNC(=O)c2ccc(CNC34CNCCNCC(N)(CNCCNC3)CNCCNC4)cc2)NC(=O)[C@@H](Cc2ccc(O)cc2)NC(=O)[C@H](CC(=O)O)NC(=O)CNC1=O [copper-64 labelled] | microPET imaging | athymic nude mice, male, PC-3 xenograft, PC-3 tumour | intravenous, 0.2 nmol, 7.4 MBq, 48 h | tumour uptake | 0.5 ± 0.07 %ID/g
Cc1ccccc1NC(=O)Nc1ccc(CC(=O)N[C@@H](CCCCNC(=O)/C=C/c2cccnc2)C(=O)N[C@@H](CCCC(=O)O)C(=O)NC2(C(=O)NCCOCCOCCOCCOCC(=O)N[C@@H](CCCCNC(=S)Nc3ccc(CCCN(CCN4CCN(CP(=O)(O)O)CCN(CP(=O)(O)O)CC4)CC(=O)O)cc3)C(N)=O)CCCCC2)cc1 [gallium-68 labelled] |  | mouse, liver | intravenous, 4 h post-injection | tissue uptake | 4.6 ± 1 %ID/g
C[C@@H](O)[C@@H](CO)NC(=O)[C@@H](CCCNC(=N)N)NC(=O)[C@@H]1CCCN1C(=O)[C@@H]1CSSC[C@H](NC(=O)[C@H](Cc2ccccc2)NC(=O)CN2CCN(CC(=O)O)CCN(CC(=O)O)CCN(CC(=O)O)CC2)C(=O)N[C@@H](Cc2ccc(O)cc2)C(=O)N[C@@H](Cc2ccccc2)C(=O)N[C@@H](CCC(N)=O)C(=O)N[C@@H](CC(N)=O)C(=O)N1 [gallium-68 labelled] |  | Wistar rat, healthy, Submandibular gland | intravenous, 8 MBq, 30 min | tissue uptake | 0.47 %ID/g
CC(C)[C@@H]1NC(=O)[C@H](Cc2ccccc2)NC(=O)[C@@H]2NC(=O)[C@H](Cc3ccccc3)NC(=O)[C@@H]3CCCN3C(=O)CNC(=O)[C@H](Cc3ccccc3)NC(=O)[C@@H]3CNCCCC[C@@H](C(=O)O)NC(=O)[C@@H]4NC(=O)[C@H](CC(N)=O)NC(=O)CNC(=O)[C@H]([C@@H](O)C(=O)O)NC(=O)[C@H](CSC[C@@H](NC(=O)[C@H](CCC(N)=O)NC(=O)[C@H](CCCCNC(=O)c5ccc(NN)nc5)NC(=O)[C@@H](N)CS[C@H]4C)C(=O)N[C@@H](CS[C@H]2C)C(=O)N3)NC1=O [technetium-99m labelled] |  | rat, saline control, lung | intravenous, 2 h after tracer, tracer 2 h after reperfusion | tissue uptake | 0.25 ± 0.04 %ID/g
CC(C)C[C@@H]1NC(=O)[C@H](CC(C)C)NC(=O)[C@H](Cc2c[nH]c3ccccc23)NC(=O)[C@H](CO)NC(=O)[C@H](Cc2c[nH]c3ccccc23)NC(=O)[C@@H]2CCCN2C(=O)[C@H](CC(C)C)NC(=O)[C@H](Cc2c[nH]cn2)NC(=O)[C@@H]2CCCN2C(=O)[C@H](CC(N)=O)NC(=O)[C@H](C)NC(=O)[C@H](Cc2ccc(O)cc2)NC(=O)[C@H](CS)NC(=O)[C@H](CCCCNC(=O)CN2CCN(CC(=O)O)CCN(CC(=O)O)CCN(CC(=O)O)CC2)NC1=O [lutetium-177 labelled] |  | Balb/c mouse, female, 4T1 tumour, intestine | intravenous, 3.7 MBq, 72 h | tissue uptake | 1.02 %ID
N=C(N)NCCC[C@H](NC(=O)[C@@H](Cc1ccccc1)NC(=O)[C@H](Cc1c[nH]cn1)NC(=O)CCCc1ccccc1)C(=O)N[C@@H](Cc1c[nH]c2ccccc12)C(=O)NCC(=O)N[C@@H](CCCCNC(=O)CCCCCNC(=O)CN1CCN(CC(=O)O)CCN(CC(=O)O)CCN(CC(=O)O)CC1)C(N)=O [actinium-225 labelled] | five-compartment model fit | SCID mice, A-375 and A-375/MC1R xenografts |  | tumour reverse transfer rate constant | 0.0008 h⁻¹

A few entries again:
Compound | test | test system | setting | quantity | value
N=C(N)NCCC[C@H](NC(=O)[C@@H](Cc1ccccc1)NC(=O)[C@H](Cc1c[nH]cn1)NC(=O)CCCc1ccccc1)C(=O)N[C@@H](Cc1c[nH]c2ccccc12)C(=O)NCC(=O)N[C@@H](CCCCNC(=O)CCCCCNC(=O)CN1CCN(CC(=O)O)CCN(CC(=O)O)CCN(CC(=O)O)CC1)C(N)=O [actinium-225 labelled] | five-compartment model fit | SCID mice, A-375 and A-375/MC1R xenografts |  | tumour reverse transfer rate constant | 0.0008 h⁻¹
